Measured values gathered from unrelated publications.
Each numbered part is a random draw from the data of one study; scales do not carry over between parts. Changes are numbered by the printed parent chain.

Study 1
Target: CCNB3, cyclin fold, Cln2 fusion (human)
Technique: yeast growth competition, sequencing
Sample: yeast
Notes: weak parent motif
Relative to: not given
Direction: higher = stronger binding
Parent: PKN2 docking peptide (human); VSAVQKLDFSDTM; partner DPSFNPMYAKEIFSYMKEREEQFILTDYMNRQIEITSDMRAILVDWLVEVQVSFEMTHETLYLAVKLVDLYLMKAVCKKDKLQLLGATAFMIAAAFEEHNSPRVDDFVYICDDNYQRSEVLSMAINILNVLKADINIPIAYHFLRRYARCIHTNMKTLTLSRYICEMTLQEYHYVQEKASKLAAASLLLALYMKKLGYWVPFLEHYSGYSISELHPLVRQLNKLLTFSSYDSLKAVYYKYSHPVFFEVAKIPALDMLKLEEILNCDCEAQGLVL
Substitution | normalised enrichment score
VSAVQKLDFSDTR [M13R] | 0.408
VPAVQKLDFSDTM [S2P] | 0.13
VSAVQKLDFSETM [D11E] | 0.356
QSAVQKLDFSDTM [V1Q] | 0.412
VSAVQKLFFSDTM [D8F] | 0.301
VSAVQKLDFSQTM [D11Q] | 0.0735
VSAQQKLDFSDTM [V4Q] | -0.0264
VSAVQKLDFSDTT [M13T] | 0.242
VSAVQKLDHSDTM [F9H] | -0.223

Study 2
Target: Phosphate system positive regulatory protein PHO4, full length, GST-tagged (PHO4, Saccharomyces cerevisiae, UniProt P07270, residues 1-312)
Technique: competition protein-binding microarray
Molecule type: double-stranded DNA, one strand shown
Sample: in vitro
Tested at: 2 µM
Notes: whole 60-bp probe, lowest competitor level
Together with: Cbf1 competitor, 0.05 µM
Direction: higher = stronger binding
Construct (chain): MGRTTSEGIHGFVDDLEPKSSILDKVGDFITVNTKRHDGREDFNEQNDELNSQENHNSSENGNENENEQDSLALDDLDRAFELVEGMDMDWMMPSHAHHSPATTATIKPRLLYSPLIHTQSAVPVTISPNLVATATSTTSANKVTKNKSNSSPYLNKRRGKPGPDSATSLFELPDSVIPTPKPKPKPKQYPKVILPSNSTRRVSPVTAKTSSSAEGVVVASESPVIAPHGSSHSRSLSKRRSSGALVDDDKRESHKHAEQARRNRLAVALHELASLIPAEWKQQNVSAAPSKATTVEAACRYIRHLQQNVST
Sequence | fluorescence intensity
TGCGCAACAACTTGATCTGTGGGTGTATGTCTAGAAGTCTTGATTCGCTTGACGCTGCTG | 4410 a.u.
GACATCTGGCGTAGTCACCTGTCAGAGAAATCGCGGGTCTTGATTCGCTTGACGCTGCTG | 4160 a.u.
CATACCCAACCTTTTCACGTGGTGTAAGATATTTGTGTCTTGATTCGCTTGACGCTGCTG | 16300 a.u.
TGTAAATTTTTTTCAGCCACTTTATCGGCACTGGAAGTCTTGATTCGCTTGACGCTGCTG | 2900 a.u.
AAATTACTAAGTTTTCACGTGAGCTACCCCGTATGAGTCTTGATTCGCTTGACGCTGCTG | 9410 a.u.
TGCGCAACAACTTGTCACGACACTTTATGTCTAGAAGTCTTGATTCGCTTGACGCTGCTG | 4140 a.u.
ATTCAGGCGGGTTGCCACGTGGCCGTTTATCTAATGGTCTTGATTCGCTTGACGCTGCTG | 21600 a.u.
AGCGGCCGCAGAACTCACGTGGCAGCTGAACCCTCCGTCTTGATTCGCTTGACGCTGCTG | 13100 a.u.

Study 3
Target: ABI1, truncated, D143A, DHFR fusion (Arabidopsis thaliana)
Technique: DHFR PCA, deep sequencing
Sample: yeast
Notes: methotrexate growth selection, single substitutions
Together with: (+)-ABA 0.0091 µM
Relative to: wild-type fitted maximum
Direction: higher = stronger binding
Parent: PYL1, truncated, DHFR fusion (Arabidopsis thaliana); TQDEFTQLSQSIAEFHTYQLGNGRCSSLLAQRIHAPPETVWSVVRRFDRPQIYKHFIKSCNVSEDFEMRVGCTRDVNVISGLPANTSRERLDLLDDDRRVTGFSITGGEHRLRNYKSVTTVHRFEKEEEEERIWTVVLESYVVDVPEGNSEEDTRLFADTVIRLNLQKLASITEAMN
Substitution | relative binding score [%]
V76F | 5.69
T119F | -11
D96W | -2.95
R88H | 52.5
E129G | 62.3

Further values, each from its own experiment
Substance | target | assay | system | setting | how to read | quantity | value
PhoQ, residues 284 288 289 292 302 303 ALAMYF | PhoP, residues 12 14 15 18 19 NQAHL (Escherichia coli, UniProt P23836) | Sort-seq, measured: YFP reporter | E. coli | PhoQ-PhoP variant library, together with: 10 µM Mg2+ | relative to: high Mg2+ state, higher = stronger signaling | fold induction | 10
